Measurements pooled from the literature.
A part holds a random share of what one study measured.

Block 1
Host: human
Matrix: microsomes or S9
Concentration: 2 µM
Time: 0.5 h
Structure (SMILES)	remaining compound
COc1ccc2c(c1OC)C(=O)OC2c1c(O)cc(C)n(Cc2ccccn2)c1=O (stereo not shown)	> 100%
COc1ccc(Nc2nc(NCCN3CCOCC3)nc(Nc3ccc(OC)cc3)n2)cc1	28.6%
CCOC(=O)Cc1c(C)[nH]c2c(-c3ccccc3)cnn2c1=O	30%
CC(=O)N1N=C(c2c(-c3ccccc3)c3ccccc3[nH]c2=O)CC1c1ccnc2ccccc12 (stereo not shown)	55.5%
O=C(Nc1ccccc1OCc1cscn1)c1cc(Cl)c[nH]1	0.696%
CS(=O)(=O)n1c(-c2ccccc2)c(C#Cc2ccccc2)c2ccccc21	> 99%
CC(C)c1ccccc1NC(=O)N1CCC[C@H]2C(=O)NC[C@H]21	76.1%
O=C(C1CCOCC1)N1CCCC(Cn2cnc3cccnc32)C1 (stereo not shown)	95.7%
CC1(C)CC(NC(=O)c2cccc(Br)c2)CC(C)(C)N1	9.68%
COc1ccc(-c2cc(-c3nc4c5c(ncn4n3)CCC5)n[nH]2)cc1	10.3%
CN(C)S(=O)(=O)c1cc(C(=O)Nc2ccc(Br)cc2)c(Cl)cc1Cl	38.9%
Cc1cccc(NC(=O)C2CCCN(S(=O)(=O)c3c[nH]c(C(=O)N4CCCC4)c3)C2)c1C (stereo not shown)	10.4%

Block 2
Target: Muscarinic acetylcholine receptor M5 (CHRM5, Homo sapiens, UniProt P08912)
Sequence of UniProt P08912 (whole entry, looked up): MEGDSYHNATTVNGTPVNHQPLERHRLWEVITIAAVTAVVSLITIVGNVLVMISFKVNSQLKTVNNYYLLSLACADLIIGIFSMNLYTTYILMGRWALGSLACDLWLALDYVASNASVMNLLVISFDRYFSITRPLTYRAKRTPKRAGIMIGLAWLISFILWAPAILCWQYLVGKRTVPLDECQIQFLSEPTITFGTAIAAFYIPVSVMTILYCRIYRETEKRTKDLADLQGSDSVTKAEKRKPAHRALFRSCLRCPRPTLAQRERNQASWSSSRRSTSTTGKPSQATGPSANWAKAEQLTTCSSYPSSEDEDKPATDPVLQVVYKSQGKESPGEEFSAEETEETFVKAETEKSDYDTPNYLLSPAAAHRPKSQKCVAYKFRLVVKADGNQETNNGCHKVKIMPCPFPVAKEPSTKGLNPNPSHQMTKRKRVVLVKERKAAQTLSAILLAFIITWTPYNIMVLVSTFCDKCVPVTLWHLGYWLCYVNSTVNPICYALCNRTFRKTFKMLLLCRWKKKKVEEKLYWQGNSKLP
Observed: ligand displacement
Concentration: 10 µM
SMILES	inhibition
CO[C@H]1CC[C@H](CNc2ccc(S(=O)(=O)NC(=O)c3ccc(N4CCN(CC5=C(c6ccc(Cl)cc6)CC(C)(C)CC5)CC4)cc3Oc3cnc4[nH]ccc4c3)cc2[N+](=O)[O-])CC1	12.5%
Cn1cc(Cl)c2c(Oc3c(F)cc(Nc4cc(Cl)nc(N)n4)cc3F)ccnc21	3.3%
COc1cccc(NC(=O)c2nc3scc(CN(C)Cc4ccccc4)c3c(=O)[nH]2)c1	2.66%
Cc1c(NC(=O)c2cc(C(N)=O)nc3cc(F)ccc23)c(C(F)(F)F)nn1Cc1ccc(C#N)cc1	4.88%
O=S(=O)(NC1CCC(c2cc(F)ccc2F)(S(=O)(=O)c2ccc(Cl)cc2)CC1)C(F)(F)F (stereo not shown)	1.96%
COc1ccc2cc(OCC3(C(=O)O)CN(C(=O)c4ccc(F)cc4)C3)ccc2c1	-7.44%
COCCOc1nc(-c2ccc(Cl)nc2)nc2c1CN(C(=O)c1ncn3ccccc13)CC2	7.79%
Cc1ccc(-c2cnc([C@@]3(O)CC[C@H](C(=O)O)C(C)(C)C3)s2)cc1Nc1cccc(C(F)(F)F)n1	-4.28%
c1ccc(N2CCN(Cc3nc4ccccc4[nH]3)CC2)nc1	-9.66%
CS(=O)(=O)N1CCCC(NC(=O)[C@H](CCC2CCCCC2)NC(=O)c2ccc(CNC(=O)c3cnc4ccccn34)cc2)C1 (stereo partly shown)	-25.5%
CC(=O)Nc1ncc(CN2CCC[C@H](Cc3cc(C)nc(C)c3)C2)s1	-10.8%
C[C@H](c1ccc(F)cc1)N(Cc1cccc(C(=O)O)c1)C(=O)c1cnc2ccccc2c1	-10.7%
C[C@H](c1ccnc(Nc2nc3ccc(-c4cc(N(C)C)ncn4)cc3[nH]2)c1)N1CCN(C(=O)CC(F)(F)F)CC1	18.7%
CN(C)C(=O)c1sc2nc(N3CCC(S(C)(=O)=O)CC3)cc(C(F)(F)F)c2c1N	-6.93%
COc1cc(N[C@@H]2CCCC[C@]2(O)C(F)(F)F)ccc1F	-5.5%
CCc1ccccc1C(=O)Nc1n[nH]c2c(C)c(F)c(C3C(C#N)=C(C)N(C)C(C)=C3C#N)cc12	17.9%

Block 3
Target: Calcium/calmodulin-dependent protein kinase type II subunit alpha (CAMK2A, Homo sapiens, UniProt Q9UQM7)
Sequence of UniProt Q9UQM7 (whole entry, looked up): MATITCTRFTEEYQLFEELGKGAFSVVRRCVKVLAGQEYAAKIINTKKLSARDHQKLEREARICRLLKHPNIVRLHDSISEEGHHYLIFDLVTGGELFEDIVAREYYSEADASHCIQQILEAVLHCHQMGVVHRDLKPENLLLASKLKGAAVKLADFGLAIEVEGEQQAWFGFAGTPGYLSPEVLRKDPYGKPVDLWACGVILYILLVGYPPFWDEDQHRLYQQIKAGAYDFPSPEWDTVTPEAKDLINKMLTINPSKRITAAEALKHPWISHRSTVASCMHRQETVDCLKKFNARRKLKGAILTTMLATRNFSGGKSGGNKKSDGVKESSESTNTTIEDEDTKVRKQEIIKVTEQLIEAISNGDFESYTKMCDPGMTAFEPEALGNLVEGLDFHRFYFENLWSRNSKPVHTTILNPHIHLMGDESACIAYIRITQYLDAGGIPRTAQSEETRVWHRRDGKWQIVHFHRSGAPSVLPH
Observed: enzyme activity
Mode: inhibitor
Concentration: 10 µM
SMILES	inhibition [%]
CC1(C)C(/C=C/C=C/C=C/C=C2\N(CCCCS(=O)(=O)O)c3ccc4ccccc4c3C2(C)C)=[N+](CCCCS(=O)(=O)[O-])c2ccc3ccccc3c21	-4
O=C(O)CCCCCCCCCCCCC(=O)O	-1
N[C@@H](Cc1ccc(O)c([N+](=O)[O-])c1)C(=O)O	-29
Cc1ccc(C(=O)O)cc1	-26
O=C(O)/C=C/C(=O)O	5
CCCCCCCCCCCCCCCCC(=O)O	-34
O=C(/C=C/c1ccc(O)c(O)c1)O[C@@H]1CC(C(=O)O)=C[C@@H](O)[C@H]1O	32
C=CC[N+]1([C@H]2C[C@H]3[C@@H]4CC[C@H]5C[C@H](OC(C)=O)[C@@H](N6CCCCC6)C[C@]5(C)[C@H]4CC[C@]3(C)[C@H]2OC(=O)CC)CCCCC1	3
CC(C)CN(C[C@@H](O)[C@H](Cc1ccccc1)NC(=O)O[C@H]1CO[C@H]2OCC[C@H]21)S(=O)(=O)c1ccc(N)cc1	6
C=C(NC(=O)c1csc(-c2nc3c(cc2O)-c2nc(cs2)C(=O)N[C@@H]([C@@H](C)O)C(=O)N/C(=C/C)c2nc(cs2)C(=O)N[C@H]2C[C@H](O)C(=O)OCc4cccc5[nH]c(c(C)c45)C(=O)SC[C@H](NC(=O)c4csc2n4)c2nc-3cs2)n1)C(N)=O	-65
CC1=COC(=O)[C@H]2[C@@H]1CC[C@@H]2C	-63
CC(/C=C/C=C(\C)C(=O)O[C@@H]1O[C@H](CO[C@@H]2O[C@H](CO)[C@@H](O)[C@H](O)[C@H]2O)[C@@H](O)[C@H](O)[C@H]1O)=C\C=C\C=C(C)\C=C\C=C(/C)C(=O)O[C@@H]1O[C@H](CO[C@@H]2O[C@H](CO)[C@@H](O)[C@H](O)[C@H]2O)[C@@H](O)[C@H](O)[C@H]1O	4

Block 4
Target: Ribosomal protein S6 kinase beta-2 (RPS6KB2, Homo sapiens, UniProt Q9UBS0)
Sequence of UniProt Q9UBS0 (whole entry, looked up): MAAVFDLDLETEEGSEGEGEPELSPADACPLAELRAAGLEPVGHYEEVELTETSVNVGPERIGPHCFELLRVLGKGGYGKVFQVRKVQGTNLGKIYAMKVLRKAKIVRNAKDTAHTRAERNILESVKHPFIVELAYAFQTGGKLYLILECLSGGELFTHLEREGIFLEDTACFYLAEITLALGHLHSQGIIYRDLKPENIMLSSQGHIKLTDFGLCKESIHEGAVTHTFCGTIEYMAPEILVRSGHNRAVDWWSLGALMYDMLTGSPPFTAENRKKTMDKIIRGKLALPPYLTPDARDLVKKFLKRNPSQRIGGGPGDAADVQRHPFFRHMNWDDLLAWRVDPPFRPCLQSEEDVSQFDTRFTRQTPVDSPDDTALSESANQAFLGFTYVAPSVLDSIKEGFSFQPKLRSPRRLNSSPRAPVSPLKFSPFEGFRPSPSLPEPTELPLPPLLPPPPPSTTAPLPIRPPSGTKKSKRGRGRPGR
Observed: enzyme activity
Mode: inhibitor
Concentration: 0.5 µM
Reference: control
Compound	remaining activity [%]
O=C1NC(=O)c2c1c1c3ccccc3[nH]c1n1cncc21	74.7
COc1ccc(COc2ccc(Cc3cnc(N)nc3N)cc2OC)cc1	100
c1ccc(-c2n[nH]c3c2oc2ccccc23)cc1	99.8
O=C1Nc2ccc(Br)cc2/C1=C/c1cc2c([nH]1)CCCC2	102
O=C(c1cc2cc(O)ccc2[nH]1)c1cc2cc(O)ccc2[nH]1	102
Oc1cccc(-c2nc(N3CCOCC3)c3oc4ncccc4c3n2)c1	95.8
Cc1ccc(S(=O)(=O)/C=C/C#N)cc1	109
O=C1NC(=O)c2c1c1c3ccccc3[nH]c1c1[nH]c3cc(Br)ccc3c21	83.9
O=C1Cc2c([nH]c3ccc(Br)cc23)-c2ccccc2N1	99.4
O=Nc1c(-c2c(O)[nH]c3cc(Br)ccc23)[nH]c2ccccc12	100
N#Cc1cnc2cnc(NCc3cccnc3)cc2c1Nc1ccc(F)c(Cl)c1	99.5
COc1cccc(-c2cc(=O)c3ccccc3o2)c1N	84.5

Excerpt of the above (block 3):
SMILES	inhibition [%]
O=C(O)/C=C/C(=O)O	5
CCCCCCCCCCCCCCCCC(=O)O	-34
O=C(/C=C/c1ccc(O)c(O)c1)O[C@@H]1CC(C(=O)O)=C[C@@H](O)[C@H]1O	32
C=CC[N+]1([C@H]2C[C@H]3[C@@H]4CC[C@H]5C[C@H](OC(C)=O)[C@@H](N6CCCCC6)C[C@]5(C)[C@H]4CC[C@]3(C)[C@H]2OC(=O)CC)CCCCC1	3
CC(C)CN(C[C@@H](O)[C@H](Cc1ccccc1)NC(=O)O[C@H]1CO[C@H]2OCC[C@H]21)S(=O)(=O)c1ccc(N)cc1	6
C=C(NC(=O)c1csc(-c2nc3c(cc2O)-c2nc(cs2)C(=O)N[C@@H]([C@@H](C)O)C(=O)N/C(=C/C)c2nc(cs2)C(=O)N[C@H]2C[C@H](O)C(=O)OCc4cccc5[nH]c(c(C)c45)C(=O)SC[C@H](NC(=O)c4csc2n4)c2nc-3cs2)n1)C(N)=O	-65
CC1=COC(=O)[C@H]2[C@@H]1CC[C@@H]2C	-63
CC(/C=C/C=C(\C)C(=O)O[C@@H]1O[C@H](CO[C@@H]2O[C@H](CO)[C@@H](O)[C@H](O)[C@H]2O)[C@@H](O)[C@H](O)[C@H]1O)=C\C=C\C=C(C)\C=C\C=C(/C)C(=O)O[C@@H]1O[C@H](CO[C@@H]2O[C@H](CO)[C@@H](O)[C@H](O)[C@H]2O)[C@@H](O)[C@H](O)[C@H]1O	4
